Results collected from several papers.
Each numbered part is a random draw from the data of one study; scales do not carry over between parts.
Sequence of UniProt P42336 (whole entry, unmodified, looked up): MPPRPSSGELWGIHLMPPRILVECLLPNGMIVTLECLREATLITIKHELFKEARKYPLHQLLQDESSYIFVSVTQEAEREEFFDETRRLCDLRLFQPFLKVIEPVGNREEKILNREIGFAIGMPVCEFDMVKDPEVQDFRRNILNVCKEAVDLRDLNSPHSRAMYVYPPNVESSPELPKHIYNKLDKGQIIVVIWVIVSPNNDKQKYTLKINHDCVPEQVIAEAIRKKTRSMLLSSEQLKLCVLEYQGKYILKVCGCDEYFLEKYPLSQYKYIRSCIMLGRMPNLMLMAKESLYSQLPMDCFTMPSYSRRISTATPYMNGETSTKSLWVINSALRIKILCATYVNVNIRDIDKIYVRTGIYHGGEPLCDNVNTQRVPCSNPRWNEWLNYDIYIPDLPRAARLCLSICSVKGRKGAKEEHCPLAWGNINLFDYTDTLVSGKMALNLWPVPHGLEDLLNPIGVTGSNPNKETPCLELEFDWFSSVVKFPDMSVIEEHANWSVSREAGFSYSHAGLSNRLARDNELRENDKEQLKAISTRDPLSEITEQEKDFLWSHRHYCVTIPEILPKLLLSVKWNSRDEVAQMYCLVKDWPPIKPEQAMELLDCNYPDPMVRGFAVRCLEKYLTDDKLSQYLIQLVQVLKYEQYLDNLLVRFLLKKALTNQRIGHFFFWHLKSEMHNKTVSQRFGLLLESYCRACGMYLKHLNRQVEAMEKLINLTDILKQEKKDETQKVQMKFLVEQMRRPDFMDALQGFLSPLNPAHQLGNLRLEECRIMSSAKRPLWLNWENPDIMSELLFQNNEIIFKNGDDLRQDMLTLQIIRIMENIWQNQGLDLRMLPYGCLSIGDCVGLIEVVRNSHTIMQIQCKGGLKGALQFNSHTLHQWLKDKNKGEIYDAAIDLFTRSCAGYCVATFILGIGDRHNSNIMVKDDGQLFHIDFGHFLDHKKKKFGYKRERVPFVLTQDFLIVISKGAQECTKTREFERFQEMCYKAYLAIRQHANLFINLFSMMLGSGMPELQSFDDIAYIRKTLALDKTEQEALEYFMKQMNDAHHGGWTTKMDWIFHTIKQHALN
Sequence of UniProt P51451 (whole entry, looked up): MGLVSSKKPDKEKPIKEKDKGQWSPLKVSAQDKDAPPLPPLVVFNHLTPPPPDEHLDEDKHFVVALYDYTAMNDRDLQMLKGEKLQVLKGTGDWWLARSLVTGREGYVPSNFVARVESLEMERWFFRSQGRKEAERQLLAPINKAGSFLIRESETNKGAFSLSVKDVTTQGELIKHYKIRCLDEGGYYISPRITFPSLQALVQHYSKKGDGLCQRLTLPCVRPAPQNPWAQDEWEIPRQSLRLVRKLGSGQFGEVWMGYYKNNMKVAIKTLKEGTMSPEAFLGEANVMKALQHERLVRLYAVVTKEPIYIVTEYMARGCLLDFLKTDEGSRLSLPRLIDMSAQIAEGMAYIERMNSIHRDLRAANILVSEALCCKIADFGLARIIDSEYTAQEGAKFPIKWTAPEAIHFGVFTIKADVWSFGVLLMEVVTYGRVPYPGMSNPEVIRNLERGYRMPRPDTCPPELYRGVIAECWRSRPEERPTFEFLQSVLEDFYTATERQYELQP
Sequence of UniProt Q15835 (whole entry, looked up): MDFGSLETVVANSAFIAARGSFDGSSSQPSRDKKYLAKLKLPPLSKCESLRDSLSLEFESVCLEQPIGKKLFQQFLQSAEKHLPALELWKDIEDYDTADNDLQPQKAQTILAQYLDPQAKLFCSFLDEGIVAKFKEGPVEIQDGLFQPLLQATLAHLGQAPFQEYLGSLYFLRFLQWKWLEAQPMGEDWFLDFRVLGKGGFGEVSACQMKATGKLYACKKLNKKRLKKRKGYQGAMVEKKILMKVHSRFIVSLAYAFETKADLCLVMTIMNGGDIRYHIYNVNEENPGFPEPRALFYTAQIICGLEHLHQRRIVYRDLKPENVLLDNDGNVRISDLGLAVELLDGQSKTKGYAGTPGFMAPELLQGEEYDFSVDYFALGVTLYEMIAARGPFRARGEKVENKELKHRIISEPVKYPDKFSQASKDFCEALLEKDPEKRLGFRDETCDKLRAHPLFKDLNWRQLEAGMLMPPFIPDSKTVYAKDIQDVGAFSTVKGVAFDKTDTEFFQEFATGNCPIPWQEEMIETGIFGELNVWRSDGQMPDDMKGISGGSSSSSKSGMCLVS
Sequence of UniProt O43318 (whole entry, looked up): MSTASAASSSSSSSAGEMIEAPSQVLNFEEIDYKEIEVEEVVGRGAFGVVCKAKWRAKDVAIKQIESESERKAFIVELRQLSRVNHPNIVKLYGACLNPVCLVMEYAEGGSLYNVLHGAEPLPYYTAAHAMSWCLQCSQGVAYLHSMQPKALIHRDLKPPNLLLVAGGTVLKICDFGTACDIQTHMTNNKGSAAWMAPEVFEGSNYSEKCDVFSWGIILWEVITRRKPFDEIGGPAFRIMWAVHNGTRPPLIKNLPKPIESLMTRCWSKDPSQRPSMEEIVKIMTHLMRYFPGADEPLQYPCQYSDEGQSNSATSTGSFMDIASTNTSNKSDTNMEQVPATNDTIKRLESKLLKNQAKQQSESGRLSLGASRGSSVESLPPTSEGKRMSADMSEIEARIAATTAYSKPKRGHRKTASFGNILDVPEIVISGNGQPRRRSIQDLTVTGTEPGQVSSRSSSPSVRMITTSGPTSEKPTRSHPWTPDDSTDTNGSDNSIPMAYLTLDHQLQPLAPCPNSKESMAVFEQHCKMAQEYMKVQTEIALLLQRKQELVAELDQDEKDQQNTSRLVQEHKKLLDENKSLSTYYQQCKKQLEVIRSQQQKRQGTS
Sequence of UniProt P30291 (whole entry, looked up): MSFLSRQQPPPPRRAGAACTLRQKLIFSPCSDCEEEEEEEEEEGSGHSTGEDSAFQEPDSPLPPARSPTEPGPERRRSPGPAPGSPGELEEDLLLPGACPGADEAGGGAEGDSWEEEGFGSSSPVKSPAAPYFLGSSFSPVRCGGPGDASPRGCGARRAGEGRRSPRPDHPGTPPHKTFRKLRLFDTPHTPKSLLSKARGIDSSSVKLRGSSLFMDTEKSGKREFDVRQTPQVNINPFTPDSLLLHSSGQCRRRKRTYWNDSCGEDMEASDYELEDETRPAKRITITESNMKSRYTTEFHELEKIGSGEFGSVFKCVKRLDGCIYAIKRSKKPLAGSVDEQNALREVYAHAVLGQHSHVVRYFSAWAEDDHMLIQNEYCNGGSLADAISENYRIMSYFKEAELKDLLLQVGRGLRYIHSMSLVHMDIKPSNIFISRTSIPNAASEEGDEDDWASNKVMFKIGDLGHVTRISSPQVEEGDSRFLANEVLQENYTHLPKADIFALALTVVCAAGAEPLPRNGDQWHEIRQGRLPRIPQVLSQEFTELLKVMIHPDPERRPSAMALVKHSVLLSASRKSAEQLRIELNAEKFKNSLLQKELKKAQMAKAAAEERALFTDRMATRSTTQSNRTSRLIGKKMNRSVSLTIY
Sequence of UniProt P07332 (whole entry, looked up): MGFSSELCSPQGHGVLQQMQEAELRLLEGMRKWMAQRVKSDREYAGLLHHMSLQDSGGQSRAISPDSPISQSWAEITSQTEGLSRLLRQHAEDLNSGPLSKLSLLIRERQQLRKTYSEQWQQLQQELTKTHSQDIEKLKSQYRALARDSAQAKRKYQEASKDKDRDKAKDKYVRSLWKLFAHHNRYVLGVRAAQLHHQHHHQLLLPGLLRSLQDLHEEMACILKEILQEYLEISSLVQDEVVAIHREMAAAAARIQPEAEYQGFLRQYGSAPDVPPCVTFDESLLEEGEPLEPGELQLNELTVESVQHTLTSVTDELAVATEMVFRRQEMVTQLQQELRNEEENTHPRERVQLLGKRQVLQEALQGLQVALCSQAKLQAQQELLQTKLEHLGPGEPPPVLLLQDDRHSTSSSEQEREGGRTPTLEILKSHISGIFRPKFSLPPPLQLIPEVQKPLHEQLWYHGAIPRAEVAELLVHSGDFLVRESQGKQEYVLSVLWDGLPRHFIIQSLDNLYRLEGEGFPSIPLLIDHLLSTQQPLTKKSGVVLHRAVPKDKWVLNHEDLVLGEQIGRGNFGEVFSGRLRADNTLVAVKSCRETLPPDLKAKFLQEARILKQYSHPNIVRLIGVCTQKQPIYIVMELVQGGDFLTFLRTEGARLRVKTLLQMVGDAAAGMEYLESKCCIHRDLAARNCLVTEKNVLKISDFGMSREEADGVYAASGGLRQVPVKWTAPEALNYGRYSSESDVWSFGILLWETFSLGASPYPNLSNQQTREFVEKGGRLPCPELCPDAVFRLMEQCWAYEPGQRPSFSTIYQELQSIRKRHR

Study 1 — effect on: enzyme activity; action: inhibitor; concentration: 0.5 µM; baseline: control
Target: Dual specificity protein kinase CLK2 (CLK2, Homo sapiens, UniProt P49760)
Sequence of UniProt P49760 (whole entry, looked up): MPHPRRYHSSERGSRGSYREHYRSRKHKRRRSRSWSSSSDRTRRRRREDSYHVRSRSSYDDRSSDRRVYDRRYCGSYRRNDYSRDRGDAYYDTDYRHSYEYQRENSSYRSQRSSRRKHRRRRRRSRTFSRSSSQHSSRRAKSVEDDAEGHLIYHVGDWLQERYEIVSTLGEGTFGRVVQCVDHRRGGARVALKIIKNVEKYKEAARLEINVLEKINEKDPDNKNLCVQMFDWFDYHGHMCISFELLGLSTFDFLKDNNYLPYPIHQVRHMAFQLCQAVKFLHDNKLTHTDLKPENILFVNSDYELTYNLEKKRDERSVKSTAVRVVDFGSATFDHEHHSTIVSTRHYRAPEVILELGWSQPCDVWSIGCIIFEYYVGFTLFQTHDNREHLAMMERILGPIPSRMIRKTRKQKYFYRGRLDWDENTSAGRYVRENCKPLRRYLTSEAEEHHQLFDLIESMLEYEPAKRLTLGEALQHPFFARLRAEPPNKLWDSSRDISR
SMILES	remaining activity
Nc1ccc2ncnc(NCCc3ccc(Oc4ccccc4)cc3)c2c1	83%
O=c1c2ccccc2[nH]c(=S)n1CCN1CCC(=C(c2ccc(F)cc2)c2ccc(F)cc2)CC1	87.8%
NCCNc1ncc(C(N)=O)c(Nc2cccc(C(F)(F)F)c2)n1	94.4%
COc1ccc(CNC(=O)Nc2ncc([N+](=O)[O-])s2)cc1	97.4%
Cc1cccc(-c2[nH]c(C(C)(C)C)nc2-c2ccc3c(c2)OCO3)n1	95.2%
N#CC(C#N)=C(N)/C(C#N)=C/c1ccc(O)cc1	100%
Cc1ccc(Nc2nccc(N(C)c3ccc4c(C)n(C)nc4c3)n2)cc1S(N)(=O)=O	90.9%
CC(C)[C@H](CO)Nc1nc(Nc2cc(N)cc(Cl)c2)c2ncn(C(C)C)c2n1	17.7%
O=C1NC(=O)C(c2cn(CCCO)c3ncccc23)=C1c1cnccn1	98.9%
O=C(Nc1cccc(Nc2cc(Nc3cccc(C(F)(F)F)c3)ncn2)c1)C1CC1	97.3%
COc1cc2ncnc(Nc3ccc(Oc4ccccc4)cc3)c2cc1OC	103%
Cc1nc(-c2ccccc2)c(-c2ccncc2)o1	98.2%
CO[C@H]1C[C@@H]2CC[C@@H](C)[C@@](O)(O2)C(=O)C(=O)N2CCCC[C@H]2C(=O)O[C@H]([C@H](C)C[C@@H]2CC[C@@H](O)[C@H](OC)C2)CC(=O)[C@H](C)/C=C(\C)[C@@H](O)[C@@H](OC)C(=O)[C@H](C)C[C@H](C)/C=C/C=C/C=C/1C	102%
Nc1[nH]nc2nc3ccccc3nc12	96.1%

Study 2 — organism: Sarcocystis neurona; effect on: parasite growth; concentration: 10 µM; time: 96 h; notes: first screen; baseline: untreated
SMILES	log2 fold change
Cc1nccn1CC1CCc2c(c3ccccc3n2C)C1=O (stereo not shown)	0.28
O=C1c2c(O)cc(O)cc2OC(c2ccc(O)c(O)c2)C1O (stereo not shown)	0.09
COc1ccc2c3c1O[C@H]1C[C@@H](O)C=C[C@@]31CCN(C)C2	0.15
O=C1Nc2ccc(Cl)cc2[C@@](C#CC2CC2)(C(F)(F)F)O1	-0.34

Study 3 — organism: Plasmodium berghei; action: inhibitor; cells: Huh-7; strain: GFP-expressing, liver stage; concentration: 10 µM; time: 24 h; baseline: untreated control
Structure (SMILES)	infection rate [%]
COc1ccccc1OCC(O)CN1CCN(CC(=O)Nc2c(C)cccc2C)CC1 (stereo not shown)	99.7
NCCS(=O)(=O)O	44.6
O=C1N=C(O)NC1(c1ccccc1)c1ccccc1	90.4
CCCN(CCC)S(=O)(=O)c1ccc(C(=O)O)cc1	52.4
C[C@H](CCC(=O)O)[C@H]1CC[C@H]2[C@@H]3[C@@H](O)C[C@@H]4C[C@H](O)CC[C@]4(C)[C@H]3CC[C@]12C	86.4
COc1cc([C@@H]2c3cc4c(cc3[C@@H](O[C@@H]3O[C@@H]5CO[C@@H](c6cccs6)O[C@H]5[C@H](O)[C@H]3O)[C@H]3COC(=O)[C@H]23)OCO4)cc(OC)c1O	26.6

Study 4 — effect on: cell-free assay; method: competition with immobilised ligand; concentration: 1 µM
SMILES: COc1ccc2c(c1)O[C@@H](c1ccc(OC)c(OC)c1)C[C@H]2NC(=O)C1(c2ccc3c(c2)OC(F)(F)O3)CC1
target	remaining binding
Mitogen-activated protein kinase kinase kinase 7 (MAP3K7, Homo sapiens, UniProt O43318)	100%
Wee1-like protein kinase (WEE1, Homo sapiens, UniProt P30291)	99%
Tyrosine-protein kinase Blk (BLK, Homo sapiens, UniProt P51451)	91%
Phosphatidylinositol 4,5-bisphosphate 3-kinase catalytic subunit alpha isoform (PIK3CA, Homo sapiens, UniProt P42336, E542K)	79%
Tyrosine-protein kinase Fes/Fps (FES, Homo sapiens, UniProt P07332)	93%
Tyrosine-protein kinase Yes (YES1, Homo sapiens, UniProt P07947)	100%
Rhodopsin kinase GRK1 (GRK1, Homo sapiens, UniProt Q15835)	95%

For quick reference, copied from above (study 4):
target	remaining binding
Wee1-like protein kinase (WEE1, Homo sapiens, UniProt P30291)	99%
Tyrosine-protein kinase Yes (YES1, Homo sapiens, UniProt P07947)	100%
Phosphatidylinositol 4,5-bisphosphate 3-kinase catalytic subunit alpha isoform (PIK3CA, Homo sapiens, UniProt P42336, E542K)	79%
Tyrosine-protein kinase Blk (BLK, Homo sapiens, UniProt P51451)	91%
Rhodopsin kinase GRK1 (GRK1, Homo sapiens, UniProt Q15835)	95%
